Experimental data of several laboratories.
Every numbered part comes from another study and shows a few of its results, in no order. Changes are numbered by the printed parent chain.

Sample 1
Target: JUND, bZIP domain (human)
Technique: DHFR protein complementation
Sample: yeast
Notes: single substitutions, most at no-binding floor
Relative to: wild-type JUN-FOS pair
Direction: higher = stronger binding
Parent: JUN, bZIP domain (human); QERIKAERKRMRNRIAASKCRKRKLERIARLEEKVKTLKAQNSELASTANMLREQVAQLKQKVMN
| Change | binding fitness |
| --- | --- |
| E54P | -1.42 natural log |
| L52T | -1.54 natural log |
| I28S | -1.26 natural log |
| T48G | -1.36 natural log |
| L52I | -1.36 natural log |
| Q55D | -1.39 natural log |
| Q58P | -1.52 natural log |
| L38A | -1.35 natural log |
| K39W | -1.21 natural log |
| L38P | -1.44 natural log |
| L59S | -1.38 natural log |
| V56G | -1.47 natural log |
| L31D | -1.2 natural log |
| L31I | -1.47 natural log |
| A49P | -1.47 natural log |
| K34P | -1.47 natural log |
| A57P | -1.4 natural log |
| V35S | -1.3 natural log |
| A49Q | -1.27 natural log |

Sample 2
Target: RNA binding protein fox-1 homolog 2, RRM domain, GST-SBP tag (RBFOX2, Homo sapiens, UniProt O43251-10, residues 100-194)
Technique: RNA Bind-n-Seq
Molecule type: RNA
Sample: in vitro
Concentration: 365 nM
Notes: natural RNA segment, single round, ends assumed
Relative to: no-protein control
Direction: higher = stronger binding
Constant ends, left off below: GGGAGUUCUACAGUCCGACGAUC … UGGAAUUCUCGGGUGCCAA
Construct (chain): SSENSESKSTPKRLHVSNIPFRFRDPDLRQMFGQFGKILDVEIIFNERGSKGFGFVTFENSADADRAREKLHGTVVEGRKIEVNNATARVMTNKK
| Sequence | RBNS enrichment (R) |
| --- | --- |
| GUUUGAGGAGGUAGAGAUAUGUGUAUCCAUAGGAAGAGAUCUGUCAGAACAGGCAGCUGUUGAGCUCGGGGUGUCUUCCCCAAGGCAUGUGGCUCAGCAGCAAGAAAGGC | 5.4 |
| AGUACUACCUUGCCAGGGACUCAGUCAGGGGACUUUGGGAGAAAGACUUGAUAGCCAGGCUGACUGGGUUCUAGGCAGGCCCUCUGGAAAGGUAGCUCACCUAACAAAGC | 0.196 |
| GGAGCCGGUGUAAUUCCUCCCUAAGAGGCAACCUGUUGAAUUUACUCUCUCAGAGUAAAUGGUGGGAAGGGAUCCCUUUGUAUACUUUUUUAAAUACUACAAAUUAGUGU | 0.344 |
| GACAGACUCCUAACCUGGGGCCUCUGCAGUGGCAGGCGAGGCUGCAGGAGGCCCACAGAUAAGCUGGCAAGAGGAAGGAUCCCAGGCACAUGGUUCAUCACGAGCAUGAG | 1.16 |
| GAAUAUAGAUGUACAAAUCAGUUUGAGCUCUCCUUACAUACUUUGUGUCAGUAUGCAGGACUGCUAUGUACUCGGCAACCAUCCACUGUAGUCACAGCUUCUACUUGCAU | 1.06 |
| AUUGUGGAUGCCACACAGUCCAUCUGGGGUGCCCUGUGCCUCCCAUUUUCACAGCCGCCCACUGUUGUAGAAUAAUCGCUGCCUUUACCCUCUGCAGUACCCUCAGUCAU | 0.395 |
| GAGGAAAGACACCACAACCAACACGAAAGCAAUUCCUCAUCCUCAGAUGCUCAAAGUCCCUUUUCUGUUUGUUUGUUUAUAGAUGAACUAUCUAUCUUAUUUCAGUACUU | 0.405 |
| CCUUGGUUGUGAAAUGAUUUCAUUCCAGGGGAGGGGGCGGGGGAUCCCUUGGAGGCUCAGAGCAGCUGGCCCAAGCUGCAGCUCGUCUCCAGUGGAGGCUUGAAUGCCCU | 0.188 |
| ACUGUUUCCCCACCACAGAUGUCCUGAGAUUCAGUUAAAACGAAACAUGCUGCAUCUCCAGAGAUGUGCCAAGCCAAGGAGAAUGCUAGAAGCAGAGUAAAGCUUACCCC | 0.448 |
| AGCGGGCAGGUUCUGCCUGCUUUGGCGGGCAGACACGCGGGCGCGAUCCCACACAGGCUGGCGGGGGCCGGCCCCGAGGCCGCGUGCGUGAGAACCGCGCCGGUGUCCCC | 0.234 |
| GAGGCCUCUUCCAAUGUUAGUCUUUUCUAAGGUAAUUUUUAGUAGGUCAUAAUUCAGUAUAUACUAGCCUACUCAUCUCUGAAGACUGACUUUGCUCGUAAUUUUUUUUU | 0.614 |
| CACACAGCUGGCACUGGCACACACCUGUCCCAUGCCCACCCUGAGGGAUCAGGAGCAAACAGACCCUGCAAGGUCCUCCAGGCCUGGGGACAGGAAAGCCACUGACCCAG | 0.442 |

Sample 3
Target: Interferon regulatory factor 7, full length, phosphomimetic (IRF7, Homo sapiens, UniProt Q92985, residues 1-503, S101K/S471D/S472D/S475D/S476D/S477D/S483D/S484D/S487D)
Technique: protein-binding microarray
Molecule type: double-stranded DNA, one strand shown
Sample: in vitro
Concentration: 250 nM
Notes: 60-bp whole probe
Together with: salmon DNA 0.4 mg/ml
Relative to: random background probes
Direction: higher = stronger binding
Constant ends, left off below: GCCTAGCAC … GTCTTGATTCGCTTGACGCTGCTG
Construct (chain): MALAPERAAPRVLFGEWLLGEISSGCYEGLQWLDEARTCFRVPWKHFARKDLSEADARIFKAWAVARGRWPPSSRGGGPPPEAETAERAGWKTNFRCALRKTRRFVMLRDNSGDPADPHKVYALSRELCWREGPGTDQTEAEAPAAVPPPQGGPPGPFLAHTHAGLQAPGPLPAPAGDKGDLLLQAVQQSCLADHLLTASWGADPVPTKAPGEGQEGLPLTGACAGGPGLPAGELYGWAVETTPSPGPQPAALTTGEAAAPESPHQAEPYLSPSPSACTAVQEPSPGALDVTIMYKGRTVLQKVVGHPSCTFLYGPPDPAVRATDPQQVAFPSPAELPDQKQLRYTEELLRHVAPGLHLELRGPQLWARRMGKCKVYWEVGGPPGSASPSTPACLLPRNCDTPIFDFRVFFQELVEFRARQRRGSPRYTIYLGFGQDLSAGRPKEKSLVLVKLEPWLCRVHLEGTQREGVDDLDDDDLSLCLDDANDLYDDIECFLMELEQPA
| Sequence | log fluorescence |
| --- | --- |
| TCAGCTCTGTGCATAGGACTGTGCTAG | -0.651 z-score |
| TTGGGTATCGGTTTCGGTTAGTGCTAG | 10.3 z-score |
| GACGGTCTCCCTTTCCTGACGTGCTAG | 0.625 z-score |
| TTAGATATCAGTATCGATTCGTGCTAG | 3.01 z-score |
| GACGGACTTGGTCTCGGGACGTGCTAG | -0.176 z-score |
| GACGGTATCCTACTACTGACGTGCTAG | 0.0328 z-score |
| TCACCTTGAACTTTGGCACTGTGCTAG | 0.0933 z-score |
| TTAGGTCTCCTACTGCATTAGTGCTAG | -0.0112 z-score |
| GGAGGTCTGGATGTGCCGCGGTGCTAG | -1.18 z-score |
| TCAAATTCCTGAAATCTCACTGTGCTA | 0.186 z-score |
| ATTGCTTCCTCTTTACTGCTGTGCTAG | 1.12 z-score |
| GACGAACTGTGGTATCGAGACGTGCTA | -0.155 z-score |
| TTAGAACTTGGGTATCGATTAGTGCTA | 0.463 z-score |
| GACGGTATCGGGTTTCGCGACGTGCTA | 1.94 z-score |
| GACGGACTGGACACTGGTGACGTGCTA | -0.604 z-score |
| TTTGGTTTCTGGTTTATTGAGTGCTAG | 5.99 z-score |
| TCAGTGATCAGTCTGATACTGTGCTAG | -0.773 z-score |
| TTAGATCCCAGTTTCGATTAGTGCTAG | 8.69 z-score |
| TTAGGACTGCTTTTCGTTTAGTGCTAG | 2.14 z-score |
| CTTCCACTTAGGGTGGCTGGGTGCTAG | 0.853 z-score |
| GACGGTCTCGTTATCGGGACGTGCTAG | 2.28 z-score |
| TCAATTCTCGGGACTCACACTGTGCTA | 0.63 z-score |
| TTAGGTTACCTTCTCCTTTAGTGCTAG | 0.452 z-score |
| TACGGTATCGGACTGGGGACGTGCTAG | -0.126 z-score |
| GACGGATTGGGTTTCGGGACGTGCTAG | 1.81 z-score |

Sample 4
Target: Histone acetyltransferase KAT6A, both winged helices, GST fusion (KAT6A, Homo sapiens, UniProt Q92794, residues 1-181)
Technique: protein binding microarray
Molecule type: double-stranded DNA, one strand shown
Sample: in vitro
Concentration: not given
Notes: 8-mer, flanks averaged, mean of 2 arrays, mostly near background
Relative to: not given
Direction: higher = stronger binding
Residues (chain): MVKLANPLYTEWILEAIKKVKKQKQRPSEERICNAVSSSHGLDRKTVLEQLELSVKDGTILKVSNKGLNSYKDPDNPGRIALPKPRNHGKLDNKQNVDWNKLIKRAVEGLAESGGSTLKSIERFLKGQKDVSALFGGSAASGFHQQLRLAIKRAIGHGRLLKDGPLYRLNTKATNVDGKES
| Sequence | E-score |
| --- | --- |
| TATGAAGA | -0.136 |
| GCAGAAGC | 0.034 |
| CAGGCACG | 0.059 |
| CAAAGTGA | -0.0546 |
| AGTCATCG | -0.0346 |
| AGGCCCGC | 0.224 |
| CGCATCAC | 0.0855 |
| CCCTACAA | -0.213 |
| ACGCATCC | 0.116 |
| AGTCCCGC | 0.186 |
| CAACGAAC | -0.0509 |
| GAAATGAC | 0.0018 |
| AAGCATGA | 0.00975 |
| TCGGAAAA | 0.169 |
| AACTGGGA | -0.144 |
| AATGAGCG | 0.137 |
| GGTGCCTA | -0.0903 |
| ATCTAACA | -0.185 |
| CTAAGTAA | 0.0403 |
| GCCTGACC | -0.0944 |
| ATTGCATC | -0.0808 |
| ACTGGTGA | -0.117 |
| ACCCACGT | -0.28 |

Sample 5
Target: CCNB2, cyclin fold, Cln2 fusion (human)
Technique: yeast growth competition, sequencing
Sample: yeast
Notes: weak parent motif
Relative to: not given
Direction: higher = stronger binding
Parent: SLBP docking peptide (human); ARYKRKLLINDFG; partner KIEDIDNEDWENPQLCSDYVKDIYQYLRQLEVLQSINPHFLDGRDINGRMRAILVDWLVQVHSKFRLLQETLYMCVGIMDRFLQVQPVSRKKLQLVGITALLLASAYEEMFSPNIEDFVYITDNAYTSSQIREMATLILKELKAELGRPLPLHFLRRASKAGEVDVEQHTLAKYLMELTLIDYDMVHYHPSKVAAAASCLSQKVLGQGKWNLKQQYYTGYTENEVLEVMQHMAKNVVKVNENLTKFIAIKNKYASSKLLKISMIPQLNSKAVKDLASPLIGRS
| Change | normalised enrichment score |
| --- | --- |
| ARYKRPLLINDFG [K6P] | 0.316 |
| ARYKRKLQINDFG [L8Q] | 0.453 |
| ARLKRKLLINDFG [Y3L] | 1.24 |
| ARYKRKLLINDGG [F12G] | 0.554 |
| ARYKRKLLINDQG [F12Q] | 0.366 |
| ARYKRKLLCNDFG [I9C] | 0.933 |
| ARYKRKHLINDFG [L7H] | 0.426 |
| ARYKRLLLINDFG [K6L] | 1.02 |
| ARYKRKLLIPDFG [N10P] | 0.729 |
| KRYKRKLLINDFG [A1K] | -0.176 |
| ARYKRKDLINDFG [L7D] | 0.313 |
| ARYERKLLINDFG [K4E] | 0.294 |
| ARYKRVLLINDFG [K6V] | 0.609 |
| ARYKRKLEINDFG [L8E] | 0.589 |
| ARYKRKLLVNDFG [I9V] | 0.618 |
| ASYKRKLLINDFG [R2S] | 0.144 |
| ARYKGKLLINDFG [R5G] | 0.307 |
| ARYKRKALINDFG [L7A] | 0.217 |
| ARYKRKLLIKDFG [N10K] | 0.551 |
| ARFKRKLLINDFG [Y3F] | 0.874 |
| AGYKRKLLINDFG [R2G] | 0.763 |
| IRYKRKLLINDFG [A1I] | 0.226 |
| ARYKRKLLINDFS [G13S] | 0.145 |
| ACYKRKLLINDFG [R2C] | 0.466 |
| HRYKRKLLINDFG [A1H] | 0.59 |

Repeated from above (sample 3):
| Sequence | log fluorescence |
| --- | --- |
| TTTGGTTTCTGGTTTATTGAGTGCTAG | 5.99 z-score |
| GACGGTATCCTACTACTGACGTGCTAG | 0.0328 z-score |
| GACGGACTTGGTCTCGGGACGTGCTAG | -0.176 z-score |
| GACGGTCTCCCTTTCCTGACGTGCTAG | 0.625 z-score |
| GACGGTATCGGGTTTCGCGACGTGCTA | 1.94 z-score |
| CTTCCACTTAGGGTGGCTGGGTGCTAG | 0.853 z-score |
| TCAATTCTCGGGACTCACACTGTGCTA | 0.63 z-score |
| GACGGATTGGGTTTCGGGACGTGCTAG | 1.81 z-score |
| ATTGCTTCCTCTTTACTGCTGTGCTAG | 1.12 z-score |
| TTAGGTTACCTTCTCCTTTAGTGCTAG | 0.452 z-score |
| TCAGCTCTGTGCATAGGACTGTGCTAG | -0.651 z-score |
| TTAGGTCTCCTACTGCATTAGTGCTAG | -0.0112 z-score |
| TTAGATCCCAGTTTCGATTAGTGCTAG | 8.69 z-score |
| TTGGGTATCGGTTTCGGTTAGTGCTAG | 10.3 z-score |
| TTAGATATCAGTATCGATTCGTGCTAG | 3.01 z-score |
